Results of several laboratories.
Lines come from different studies, so protocols differ. “And” joins repeats or separate records; there may be more than shown. ± marks the error that the study gave.
BCHE: Cholinesterase (BCHE, Equus caballus, UniProt P81908)
Sequence of UniProt P81908 (whole entry, looked up): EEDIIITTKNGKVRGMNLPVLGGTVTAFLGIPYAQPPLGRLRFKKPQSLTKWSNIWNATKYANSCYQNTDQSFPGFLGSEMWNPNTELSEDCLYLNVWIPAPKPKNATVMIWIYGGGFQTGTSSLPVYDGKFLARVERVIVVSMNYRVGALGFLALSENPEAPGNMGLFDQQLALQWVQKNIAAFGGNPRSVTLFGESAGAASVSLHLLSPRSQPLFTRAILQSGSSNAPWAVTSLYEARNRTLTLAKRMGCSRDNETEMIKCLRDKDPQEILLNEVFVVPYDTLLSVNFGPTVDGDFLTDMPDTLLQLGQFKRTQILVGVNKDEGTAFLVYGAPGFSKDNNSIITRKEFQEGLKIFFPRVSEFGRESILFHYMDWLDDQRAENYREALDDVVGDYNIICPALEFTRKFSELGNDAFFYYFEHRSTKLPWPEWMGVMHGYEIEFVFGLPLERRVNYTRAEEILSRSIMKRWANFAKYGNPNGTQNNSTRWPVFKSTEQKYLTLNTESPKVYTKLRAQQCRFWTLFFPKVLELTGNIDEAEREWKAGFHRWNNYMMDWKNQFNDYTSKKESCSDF
CA2: Carbonic anhydrase 2 (CA2, Homo sapiens, UniProt P00918)
uncharacterized protein: uncharacterized protein (Anopheles gambiae, UniProt Q7QFG0)
Mitogen-activated protein kinase 14: Mitogen-activated protein kinase 14 (Rattus norvegicus, UniProt P70618)
Sequence of UniProt P70618 (whole entry, looked up): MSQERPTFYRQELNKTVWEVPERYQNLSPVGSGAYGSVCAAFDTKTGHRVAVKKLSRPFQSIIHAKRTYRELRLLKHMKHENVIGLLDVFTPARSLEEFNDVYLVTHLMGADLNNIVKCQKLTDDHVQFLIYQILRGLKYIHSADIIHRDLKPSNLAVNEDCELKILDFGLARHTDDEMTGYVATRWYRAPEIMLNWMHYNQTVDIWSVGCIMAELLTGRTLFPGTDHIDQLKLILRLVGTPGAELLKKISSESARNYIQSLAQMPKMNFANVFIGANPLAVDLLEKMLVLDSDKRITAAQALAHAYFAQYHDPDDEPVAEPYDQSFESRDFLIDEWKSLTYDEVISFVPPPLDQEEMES
Sequence of UniProt P12821 (whole entry, looked up): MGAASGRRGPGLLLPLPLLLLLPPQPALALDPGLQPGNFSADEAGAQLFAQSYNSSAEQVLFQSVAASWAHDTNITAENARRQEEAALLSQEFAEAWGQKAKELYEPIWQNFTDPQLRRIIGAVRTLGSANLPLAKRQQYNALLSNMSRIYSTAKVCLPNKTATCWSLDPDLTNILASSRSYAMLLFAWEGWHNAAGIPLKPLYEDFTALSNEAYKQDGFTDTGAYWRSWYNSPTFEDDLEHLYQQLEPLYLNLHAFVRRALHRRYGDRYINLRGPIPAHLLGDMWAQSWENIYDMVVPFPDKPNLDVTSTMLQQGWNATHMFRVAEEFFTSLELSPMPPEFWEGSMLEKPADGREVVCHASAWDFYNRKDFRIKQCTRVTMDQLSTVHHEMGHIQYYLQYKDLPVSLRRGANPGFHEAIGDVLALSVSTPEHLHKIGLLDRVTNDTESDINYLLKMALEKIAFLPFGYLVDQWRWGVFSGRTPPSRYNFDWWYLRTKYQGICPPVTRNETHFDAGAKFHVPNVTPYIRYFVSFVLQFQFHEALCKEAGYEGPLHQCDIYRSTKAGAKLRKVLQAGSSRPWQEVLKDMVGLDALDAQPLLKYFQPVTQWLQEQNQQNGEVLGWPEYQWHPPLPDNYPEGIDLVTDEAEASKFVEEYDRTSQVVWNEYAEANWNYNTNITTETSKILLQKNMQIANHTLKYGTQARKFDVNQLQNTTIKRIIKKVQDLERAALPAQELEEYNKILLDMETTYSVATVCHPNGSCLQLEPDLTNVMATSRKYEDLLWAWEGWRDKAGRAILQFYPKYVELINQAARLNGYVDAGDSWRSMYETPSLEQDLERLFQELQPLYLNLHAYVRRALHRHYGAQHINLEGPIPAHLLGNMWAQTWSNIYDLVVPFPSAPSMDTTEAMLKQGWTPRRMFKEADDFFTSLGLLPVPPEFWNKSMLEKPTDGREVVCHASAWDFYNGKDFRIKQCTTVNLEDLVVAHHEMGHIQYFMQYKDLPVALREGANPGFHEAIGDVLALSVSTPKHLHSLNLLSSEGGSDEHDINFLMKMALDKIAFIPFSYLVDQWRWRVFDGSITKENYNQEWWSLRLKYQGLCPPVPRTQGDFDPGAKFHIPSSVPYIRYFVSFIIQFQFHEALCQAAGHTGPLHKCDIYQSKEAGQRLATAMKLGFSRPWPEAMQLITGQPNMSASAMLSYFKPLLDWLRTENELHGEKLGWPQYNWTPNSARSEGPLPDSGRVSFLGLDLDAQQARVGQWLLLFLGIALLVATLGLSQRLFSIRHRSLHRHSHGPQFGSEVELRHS
Sequence of UniProt Q9H2K2 (whole entry, looked up): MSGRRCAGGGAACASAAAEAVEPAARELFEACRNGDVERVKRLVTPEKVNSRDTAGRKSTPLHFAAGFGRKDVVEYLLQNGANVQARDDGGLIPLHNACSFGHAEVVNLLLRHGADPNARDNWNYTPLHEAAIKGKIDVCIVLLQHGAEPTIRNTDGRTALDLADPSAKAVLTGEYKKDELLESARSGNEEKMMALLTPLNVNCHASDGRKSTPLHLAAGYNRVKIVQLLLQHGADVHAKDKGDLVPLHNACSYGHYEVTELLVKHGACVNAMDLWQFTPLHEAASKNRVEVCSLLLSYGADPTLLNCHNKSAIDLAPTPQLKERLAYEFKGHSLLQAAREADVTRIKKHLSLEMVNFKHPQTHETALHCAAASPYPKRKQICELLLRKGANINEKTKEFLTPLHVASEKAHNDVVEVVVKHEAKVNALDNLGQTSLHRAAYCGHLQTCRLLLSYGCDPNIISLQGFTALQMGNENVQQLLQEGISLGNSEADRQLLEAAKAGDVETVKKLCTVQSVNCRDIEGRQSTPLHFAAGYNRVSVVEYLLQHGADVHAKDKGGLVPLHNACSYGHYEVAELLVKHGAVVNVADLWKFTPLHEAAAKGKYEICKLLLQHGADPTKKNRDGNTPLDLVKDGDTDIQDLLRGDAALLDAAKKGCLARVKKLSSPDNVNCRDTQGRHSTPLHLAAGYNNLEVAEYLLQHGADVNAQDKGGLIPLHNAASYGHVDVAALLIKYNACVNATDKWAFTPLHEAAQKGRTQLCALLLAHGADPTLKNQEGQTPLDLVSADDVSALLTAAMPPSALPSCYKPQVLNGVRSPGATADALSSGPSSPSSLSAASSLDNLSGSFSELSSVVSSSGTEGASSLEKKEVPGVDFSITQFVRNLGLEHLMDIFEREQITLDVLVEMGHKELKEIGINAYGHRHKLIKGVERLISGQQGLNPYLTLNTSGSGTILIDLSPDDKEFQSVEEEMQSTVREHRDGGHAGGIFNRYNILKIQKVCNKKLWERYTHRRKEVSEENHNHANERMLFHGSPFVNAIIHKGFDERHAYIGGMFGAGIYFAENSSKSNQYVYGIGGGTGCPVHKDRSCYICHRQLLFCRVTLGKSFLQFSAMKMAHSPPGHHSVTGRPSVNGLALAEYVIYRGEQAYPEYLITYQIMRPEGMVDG
Sequence of UniProt P09958 (whole entry, looked up): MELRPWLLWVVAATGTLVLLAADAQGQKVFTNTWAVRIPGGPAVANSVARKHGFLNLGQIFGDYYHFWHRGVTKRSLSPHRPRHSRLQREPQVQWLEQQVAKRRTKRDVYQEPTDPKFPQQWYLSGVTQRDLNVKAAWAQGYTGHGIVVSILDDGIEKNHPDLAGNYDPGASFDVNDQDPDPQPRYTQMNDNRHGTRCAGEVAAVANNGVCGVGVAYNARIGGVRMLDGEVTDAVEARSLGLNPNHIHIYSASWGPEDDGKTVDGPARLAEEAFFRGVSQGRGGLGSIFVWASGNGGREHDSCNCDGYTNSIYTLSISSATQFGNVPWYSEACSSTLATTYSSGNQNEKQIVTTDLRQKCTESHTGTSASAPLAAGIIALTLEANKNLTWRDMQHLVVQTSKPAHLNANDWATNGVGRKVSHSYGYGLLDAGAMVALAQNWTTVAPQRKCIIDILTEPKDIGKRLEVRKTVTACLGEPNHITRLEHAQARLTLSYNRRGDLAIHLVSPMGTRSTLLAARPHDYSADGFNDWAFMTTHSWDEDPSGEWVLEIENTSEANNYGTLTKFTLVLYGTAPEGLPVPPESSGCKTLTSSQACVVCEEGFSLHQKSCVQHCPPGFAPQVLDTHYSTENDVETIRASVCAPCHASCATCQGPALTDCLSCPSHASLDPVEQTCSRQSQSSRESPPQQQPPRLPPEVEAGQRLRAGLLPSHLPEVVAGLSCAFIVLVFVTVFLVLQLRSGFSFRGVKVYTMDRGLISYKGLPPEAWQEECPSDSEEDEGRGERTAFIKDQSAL
Sequence of UniProt P49683 (whole entry, looked up): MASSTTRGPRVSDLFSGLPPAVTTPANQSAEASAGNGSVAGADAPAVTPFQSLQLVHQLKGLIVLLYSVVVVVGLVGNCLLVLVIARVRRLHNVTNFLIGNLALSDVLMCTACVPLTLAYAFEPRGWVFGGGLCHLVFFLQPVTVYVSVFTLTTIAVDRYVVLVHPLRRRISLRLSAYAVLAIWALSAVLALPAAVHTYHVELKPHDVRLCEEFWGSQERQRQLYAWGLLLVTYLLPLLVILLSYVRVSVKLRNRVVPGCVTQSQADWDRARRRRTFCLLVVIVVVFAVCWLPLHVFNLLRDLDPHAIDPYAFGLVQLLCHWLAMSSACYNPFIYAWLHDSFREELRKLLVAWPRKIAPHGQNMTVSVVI
Sequence of UniProt Q9HC52 (whole entry, looked up): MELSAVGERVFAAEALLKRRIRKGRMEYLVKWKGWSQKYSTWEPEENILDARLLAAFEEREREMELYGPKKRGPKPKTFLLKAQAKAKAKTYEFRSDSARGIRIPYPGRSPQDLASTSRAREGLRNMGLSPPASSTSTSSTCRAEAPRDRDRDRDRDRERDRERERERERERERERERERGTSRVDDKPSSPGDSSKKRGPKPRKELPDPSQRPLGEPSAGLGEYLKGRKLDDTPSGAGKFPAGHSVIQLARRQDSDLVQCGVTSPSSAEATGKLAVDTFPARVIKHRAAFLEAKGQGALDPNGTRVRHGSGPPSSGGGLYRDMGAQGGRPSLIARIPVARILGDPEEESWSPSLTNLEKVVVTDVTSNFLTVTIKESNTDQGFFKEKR

CNC(=O)C[C@H](Cc1ccc(F)cc1)NC(=O)[C@@H](Cc1ccc(Cl)cc1Cl)NC(=O)[C@H](N)Cc1ccccc1C#N  IC50 (Furin (FURIN, Homo sapiens, UniProt P09958); enzyme activity, inhibitor): > 10 µM
CCN(C)C(=O)Oc1ccc(/C=C/C(=O)N2CCc3ccccc3C2)cc1OC  IC50 (BCHE; enzyme activity, inhibitor, Ellman): 1.3 µM
CC(C)[C@H](NC(=O)[C@@H](N)CCC(=O)O)C(=O)N[C@@H](CC(N)=O)C(=O)N[C@@H](Cc1ccc(O)cc1)C(=O)N[C@@H](CC(=O)O)C(=O)N[C@@H](Cc1ccccc1)C(=O)NCC(=O)NCC(=O)N[C@@H](CCCCN)C(=O)O  IC50 (Angiotensin-converting enzyme (ACE, Homo sapiens, UniProt P12821); enzyme activity, inhibitor): 151 µM and ~151 µM
O=[N+]([O-])c1ccc(S(=O)(=O)Oc2ccc(/C=N/NS(=O)(=O)c3cc(Cl)ccc3Cl)cc2)cc1  IC50 (CA2; enzyme activity, inhibitor, absorbance): 0.0264 µM
CCC(C)C1OC2(CCC1C)CC1CC(C/C=C(\C)C(OC3CC(OC)C(OC4CC(OC)C(O)C(C)O4)C(C)O3)C(C)/C=C/C=C3\COC4C(O)C(C)=CC(C(=O)O1)C34O)O2 (stereo not shown)  IC50 (Anoctamin-2 (ANO2, Homo sapiens, UniProt Q9NQ90); ion flux, inhibitor): 16.9 µM
CCCN(CCCC[C@H](NC(=O)[C@H](CCCN1CCOCC1)NC(=O)[C@@H](NC(=O)[C@H](Cc1ccccc1)NC(=O)c1ccc(C(C)(C)C)cc1)C(C)C)C(=O)N[C@@H](CO)C(N)=O)C1CC2CCC1C2 (stereo partly shown)  IC50 (Chromobox protein homolog 8 (Homo sapiens, UniProt Q9HC52); ligand displacement, TR-FRET): 0.18 µM
CCOC(=O)C(Cc1ccccc1)NC(=O)N1CCN(CC(OCc2cccc(C)c2)c2ccc(Cl)cc2)CC1 (stereo not shown)  IC50 (Lanosterol 14-alpha demethylase (ERG11, Candida albicans, UniProt P10613); enzyme activity, inhibitor, mass spectrometry): 0.488 µM
CC[C@H](C)[C@H](NC(=O)[C@H](CS)NC(=O)[C@H](CCCNC(=N)N)NC(=O)[C@H](Cc1ccccc1)NC(=O)[C@H](Cc1ccc(O)cc1)NC(=O)[C@@H]1CCCN1C(=O)[C@@H](NC(=O)[C@H](CS)NC(=O)[C@H](C)N)C(C)C)C(N)=O  IC50 (Pyruvate kinase PKM (PKM, Homo sapiens, UniProt P14618); enzyme activity, inhibitor, fluorometric; 2 h, 37 °C, enzyme 500 nM): > 1000 µM
O=C(COc1ccc(Cl)cc1Cl)Nc1ccc(CN2CCCCC2)cc1  IC50 (uncharacterized protein; enzyme activity, inhibitor, Ellman; pH 7.4, 30 °C, with: 1 mM acetylthiocholine): 4.4 µM
CC[C@H](C)[C@H](NC(=O)[C@H](C)NC(=O)[C@H](CC(C)C)NC(=O)[C@H](CCCCN)NC(=O)[C@H](CCCNC(=N)N)NC(=O)[C@H](CCCCN)NC(=O)[C@H](CCCCN)NC(=O)[C@@H](NC(=O)[C@H](CCCCN)NC(=O)[C@H](CC(N)=O)NC(=O)[C@H](CCCCN)NC(=O)[C@@H](NC(=O)[C@H](C)NC(=O)[C@@H](N)Cc1ccc(O)cc1)[C@@H](C)O)C(C)C)C(=O)N[C@H](C(=O)N[C@@H](CCCNC(=N)N)C(=O)O)[C@@H](C)CC  IC50 (Mitogen-activated protein kinase 14; enzyme activity, inhibitor, fluorescence; pH 7.4): 9 µM
CCOC(=O)c1ccccc1-c1c2ccc(=O)cc-2oc2cc(OCCCn3nnnc3C(NCc3ccccc3)c3ccc(Br)cc3)ccc12 (stereo not shown)  IC50 (Polyunsaturated fatty acid lipoxygenase ALOX15 (ALOX15, Homo sapiens, UniProt P16050); enzyme activity, inhibitor, absorbance): 54.8 µM
O=C(O)C(/C=C/c1ccc(Cl)cc1)=N\Nc1nc(-c2ccc([N+](=O)[O-])cc2)cs1  IC50 (BCHE; enzyme activity, inhibitor): 2.12 µM
O=C(c1cc(Cc2n[nH]c(=O)c3ccccc23)ccc1F)N1CC(CNC2CC2)C1  IC50 (Poly [ADP-ribose] polymerase tankyrase-2 (TNKS2, Homo sapiens, UniProt Q9H2K2); enzyme activity, inhibitor): 3.2 µM and ~3.2 µM
CC[C@H](C)[C@H](NC(=O)[C@H](CCCCN)NC(=O)[C@H](CC(C)C)NC(=O)[C@H](C)NC(=O)[C@H](C)NC(=O)[C@H](C)NC(=O)[C@H](CCCCN)NC(=O)[C@@H](NC(=O)[C@H](CCCCN)NC(=O)[C@H](CC(N)=O)NC(=O)[C@H](CCCCN)NC(=O)[C@@H](NC(=O)[C@H](C)NC(=O)[C@@H](N)Cc1ccc(O)cc1)[C@@H](C)O)C(C)C)C(=O)N[C@H](C(=O)N[C@@H](CCCNC(=N)N)C(=O)O)[C@@H](C)CC  IC50 (Mitogen-activated protein kinase 14; enzyme activity, inhibitor, fluorescence; pH 7.4): 130 µM
CCCCCCCCCCCCCCCCCC(=O)NC[C@H]1CC[C@H](C(=O)N[C@@H](CCC(=O)NCCCOCCOCCOCCCNC(=O)COCC(=O)N[C@@H](Cc2ccc(O)cc2)C(=O)NC(C)(Cc2ccccc2)C(=O)N[C@@H](CC(C)C)C(=O)N[C@@H](CCCC)C(=O)N[C@@H](CCCNC(=N)N)C(=O)N2CCC[C@H]2C(=O)N[C@@H](CCCNC(=N)NC)C(=O)N[C@@H](CC(N)=O)C(N)=O)C(=O)O)CC1 (stereo partly shown)  IC50 (Prolactin-releasing peptide receptor (PRLHR, Homo sapiens, UniProt P49683); inositol phosphate, antagonist): 1.6 µM
CC[C@H](C)[C@H](NC(=O)[C@@H](NC(=O)[C@H](CCC(=O)O)NC(=O)[C@H](CCSC)NC(=O)[C@H](CCC(N)=O)NC(=O)[C@H](CCCNC(=N)N)NC(=O)[C@H](CCCNC(=N)N)NC(=O)[C@H](CC(N)=O)NC(=O)[C@H](CCCNC(=N)N)NC(=O)[C@H](CC(C)C)NC(=O)[C@H](C)NC(=O)[C@@H](N)Cc1ccc(O)cc1)C(C)C)C(=O)N[C@@H](CO)C(=O)N[C@@H](CC(C)C)C(=O)N[C@@H](CCCNC(=N)N)C(=O)N[C@@H](CC(C)C)C(=O)O  IC50 (Mitogen-activated protein kinase 14; enzyme activity, inhibitor, fluorescence; pH 7.4): 49 µM
Cc1ccc(S(=O)(=O)Oc2ccc(/C=N/NS(=O)(=O)c3ccc(Cl)cc3)cc2)cc1  IC50 (CA2; enzyme activity, inhibitor, absorbance): 0.0342 µM
CN(C)CCCN1C(=O)CSC1c1ccc(F)cc1 (stereo not shown)  IC50 (uncharacterized protein; enzyme activity, inhibitor, Ellman; with: 1 mM acetylthiocholine): 233 µM
CC[C@H](C)[C@H](NC(=O)[C@@H](NC(=O)[C@H](CC(C)C)NC(=O)[C@H](C)NC(=O)[C@@H]1CCCN1C(=O)[C@H](CC(C)C)NC(=O)[C@@H](NC(=O)[C@@H]1CCCN1C(=O)[C@H](CCCCN)NC(=O)[C@H](CCCNC(=N)N)NC(=O)[C@H](CCCNC(=N)N)NC(=O)[C@H](C)NC(=O)[C@H](C)NC(=O)[C@@H](N)Cc1ccc(O)cc1)C(C)C)[C@@H](C)O)C(=O)N[C@@H](CC(N)=O)C(=O)N1CCC[C@H]1C(=O)O  IC50 (Mitogen-activated protein kinase 14; enzyme activity, inhibitor, fluorescence; pH 7.4): 14.9 µM
O=C(O)CCn1c(=O)oc2cc(Cl)c(Cl)cc21  IC50 (Solute carrier organic anion transporter family member 1B1 (SLCO1B1, Homo sapiens, UniProt Q9Y6L6); inhibitor; median): > 50.1 µM
CC(C)C[C@H](NC(=O)[C@H](CO)NC(=O)[C@H](CC(C)C)NC(=O)[C@H](CCCCN)NC(=O)[C@@H]1CCCN1C(=O)[C@H](CCCCN)NC(=O)[C@H](CCCCN)NC(=O)[C@H](CCCCN)NC(=O)[C@H](CCCNC(=N)N)NC(=O)[C@H](CO)NC(=O)[C@H](CS)NC(=O)[C@H](CCCCN)NC(=O)[C@H](C)NC(=O)[C@@H](N)Cc1ccc(O)cc1)C(=O)N[C@@H](CCCCN)C(=O)N[C@@H](C)C(=O)O  IC50 (Mitogen-activated protein kinase 14; enzyme activity, inhibitor, fluorescence; pH 7.4): 1.89 µM
Cc1nc(N2CCC(N(C)c3cc(C(=O)NCCN4CCCC4)cnn3)CC2)nc(C)c1CC(C)C  IC50 (Cytochrome P450 2B6 (CYP2B6, Homo sapiens, UniProt P20813); enzyme activity, inhibitor): > 30 µM
Cc1cc(O)c2c(c1)OC(C)(C)c1ccc(C)cc1-2  IC50 (rat intestinal maltase; inhibitor; rat intestinal acetone powder; 10 min, 37 °C, with: maltose 10 mM): 680 ± 50 µM
CN(C)CCCN1C(=O)CSC1c1cccc(Cl)c1 (stereo not shown)  IC50 (uncharacterized protein; enzyme activity, inhibitor, Ellman; with: 1 mM acetylthiocholine): 7 µM
CC[C@H](C)[C@H](NC(=O)[C@H](CCCCN)NC(=O)[C@H](CC(N)=O)NC(=O)[C@H](CCCNC(=N)N)NC(=O)[C@H](CCCCN)NC(=O)[C@@H](NC(=O)[C@H](CCCCN)NC(=O)[C@H](C)NC(=O)[C@@H](N)Cc1ccc(O)cc1)[C@@H](C)O)C(=O)N[C@@H](CC(C)C)C(=O)N[C@@H](CCCCN)C(=O)N[C@@H](CC(C)C)C(=O)N[C@@H](CCCCN)C(=O)N[C@@H](Cc1ccccc1)C(=O)N1CCC[C@H]1C(=O)N[C@@H](CCCNC(=N)N)C(=O)O  IC50 (Mitogen-activated protein kinase 14; enzyme activity, inhibitor, fluorescence; pH 7.4): 1.5 µM
[CH3][Ti+2][O]C(=O)c1ccc([S][Au][PH](c2ccccc2)(c2ccccc2)c2ccccc2)cc1.c1cc[cH-]c1.c1cc[cH-]c1  IC50 (MAP kinase-activated protein kinase 3 (MAPKAPK3, Homo sapiens, UniProt Q16644); enzyme activity, inhibitor, radiometric): 0.317 µM
CSCC[C@H](NC(=O)[C@H](Cc1ccc(O)cc1)NC(=O)[C@H](CCC(N)=O)NC(=O)[C@@H](NC(=O)[C@H](Cc1c[nH]cn1)NC(=O)[C@H](CCC(=O)O)NC(=O)[C@H](C)NC(=O)[C@@H](NC(=O)[C@@H](N)CCC(=O)O)C(C)C)C(C)C)C(=O)O  IC50 (MHC-I ELA-A2, horse; binding, competitive radioligand binding; pH 7): 0.0024 µM
CC[C@H](C)[C@H](N)C(=O)N[C@@H](CCCNC(=N)N)C(=O)N[C@@H](CCC(N)=O)C(=O)N[C@@H](CCC(=O)O)C(=O)N[C@@H](CCC(=O)O)C(=O)N[C@H](C(=O)N[C@@H](CCC(N)=O)C(=O)N[C@@H](CCC(=O)O)C(=O)N[C@@H](CC(C)C)C(=O)O)C(C)C  IC50 (HLA class I histocompatibility antigen, B alpha chain (Homo sapiens, UniProt P01889); peptide-MHC binding, radioligand competition binding): > 70 µM
O=C(CCc1ccc(Br)cc1)N[C@H]1CCOC1=O  IC50 (Transcriptional activator protein LasR (lasR, Pseudomonas aeruginosa, UniProt P25084); reporter gene, antagonist; Escherichia coli, JLD271 with LasR plasmid; with: OdDHL 5 nM): 0.54 µM
Nc1ccn(C2OC(COP(=O)(O)OP(=O)(O)OP(=O)(O)O)C(O)C2(F)F)c(=O)n1 (stereo not shown)  IC50 (pyrG (Escherichia coli, UniProt P0A7E5); enzyme activity; with: 6.0 mM glutamine, 1.0 mM ATP, 0.20 mM UTP): 7.3 µM
O=C(c1cccc(-n2cccc2)c1)N1CCCN(S(=O)(=O)c2ccc(F)cc2)CC1  IC50 (Procathepsin L (CTSL, Homo sapiens, UniProt P07711); enzyme activity, inhibitor, FRET): 66.9 µM

A few entries again:
CCOC(=O)c1ccccc1-c1c2ccc(=O)cc-2oc2cc(OCCCn3nnnc3C(NCc3ccccc3)c3ccc(Br)cc3)ccc12 (stereo not shown)  IC50 (Polyunsaturated fatty acid lipoxygenase ALOX15 (ALOX15, Homo sapiens, UniProt P16050); enzyme activity, inhibitor, absorbance): 54.8 µM
CC[C@H](C)[C@H](NC(=O)[C@@H](NC(=O)[C@H](CC(C)C)NC(=O)[C@H](C)NC(=O)[C@@H]1CCCN1C(=O)[C@H](CC(C)C)NC(=O)[C@@H](NC(=O)[C@@H]1CCCN1C(=O)[C@H](CCCCN)NC(=O)[C@H](CCCNC(=N)N)NC(=O)[C@H](CCCNC(=N)N)NC(=O)[C@H](C)NC(=O)[C@H](C)NC(=O)[C@@H](N)Cc1ccc(O)cc1)C(C)C)[C@@H](C)O)C(=O)N[C@@H](CC(N)=O)C(=O)N1CCC[C@H]1C(=O)O  IC50 (Mitogen-activated protein kinase 14; enzyme activity, inhibitor, fluorescence; pH 7.4): 14.9 µM
O=C(O)CCn1c(=O)oc2cc(Cl)c(Cl)cc21  IC50 (Solute carrier organic anion transporter family member 1B1 (SLCO1B1, Homo sapiens, UniProt Q9Y6L6); inhibitor; median): > 50.1 µM
Cc1cc(O)c2c(c1)OC(C)(C)c1ccc(C)cc1-2  IC50 (rat intestinal maltase; inhibitor; rat intestinal acetone powder; 10 min, 37 °C, with: maltose 10 mM): 680 ± 50 µM
Cc1ccc(S(=O)(=O)Oc2ccc(/C=N/NS(=O)(=O)c3ccc(Cl)cc3)cc2)cc1  IC50 (CA2; enzyme activity, inhibitor, absorbance): 0.0342 µM
